Results of several laboratories.
Compare with care: the assays were run in different laboratories. ± gives the spread as reported.
Method: steady-state kinetics
B1: TBM M536C (Drosophila melanogaster, UniProt Q86B61); chain TFMPVMLLLLMATLLTRPLSAFSNRLSDTKLHEIYLDDKEIKLSWMVDWYKQEVLFHLQNAFNEQHRWFYLGFSKRGGLADADICFFENQNGFFNAVTDTYTSPDGQWVRRDYQQDCEVFKMDEFTLAFRRKFDTCDPLDLRLHEGTMYVVWARGETELALEDHQFALPNVTAPHEAGVKMLQLLRADKILIPETELDHMEITLQEAPIPSQETTYWCHVQRLEGNLRRRHHIVQFEPLIRTPGIVHHMEVFHCEAGEHEEIPLYNGDCEQLPPRAKICSKVMVLWAMGAGTFTYPPEAGLPIGGPGFNPYVRLEVHFNNPEKQSGLVDNSGFRIKMSKTLRQYDAAVMELGLEYTDKMAIPPGQTAFPLSGYCVADCTRAALPATGIIIFGSQLHTHLRGVRVLTRHFRGEQELREVNRDDYYSNHFQEMRTLHYKPRVLPGDALVTTCYYNTKDDKTAALGGFSISDECCVNYIHYYPATKLEVCKSSVSEETLENYFIYMKRTEHQHGVHLNGARSSNYRSIEWTQPRIDQLYTMYMQEPLSMQCNRSDGTRFEGRSSWEGVAATPVQIRIPIHRKLCPNYNPLWLKPLEKGDCDLLGECIY
B2: Nudt8 (Mus musculus, UniProt Q9CR24); chain MLPDGLSAEDEQRCRQLLARTTARLRSRPAAAAVLVPLCLVRGVPALLYTLRSSRLVGRHKGEVSFPGGKCDPDDQDVIHTALRETQEELGLEVPKEHVWGVLQPVYDREKATIVPVLANVGPLDLQSLRPNLEEVDEVFEMSLAHLLQTQNQGYTHFCQGGHFSYTLPVFLHGPHRVWGLTAVITELTLKLLAPGFYQPSLAVPELPRG
B3: cyc1 F96W (Streptomyces coelicolor, UniProt Q9K499); chain MHAFPHGTTATPTAIAVPPSLRLPVIEAAFPRQLHPYWPKLQETTRTWLLEKRLMPADKVEEYADGLCYTDLMAGYYLGAPDEVLQAIADYSAWFWVWDDRHDRDIVHGRAGAWRRLRGLLHTALDSPGDHLHHEDTLVAGFADSVRRLYAFLPATWNARFARHFHTVIEAYDREFHNRTRGIVPGVEEYLELRRLTFAHWIWTDLLEPSSGCELPDAVRKHPAYRRAALLSQEFAAWYNDLCSLPKEIAGDEVHNLGISLITHHSLTLEEAIGEVRRRVEECITEFLAVERDALRFADELADGTVRGKELSGAVRANVGNMRNWFSSVYWFHHESGRYMVDSWDDRSTPPYVNNEAAGEK
B4: SUOX R529M/V531M/Y400N (Homo sapiens, UniProt P51687); chain ESTHIYTKEEVSSHTSPETGIWVTLGSEVFDVTEFVDLHPGGPSKLMLAAGGPLEPFWALYAVHNQSHVRELLAQYKIGELNPEDKVAPTVETSDPYADDPVRHPALKVNSQRPFNAEPPPELLTENYITPNPIFFTRNHLPVPNLDPDTYRLHVVGAPGGQSLSLSLDDLHNFPRYEITVTLQCAGNRRSEMTQVKEVKGLEWRTGAISTARWAGARLCDVLAQAGHQLCETEAHVCFEGLDSDPTGTAYGASIPLARAMDPEAEVLLAYEMNGQPLPRDHGFPVRVVVPGVVGARHVKWLGRVSVQPEESYSHWQRRDNKGFSPSVDWETVDFDSAPSIQELPVQSAITEPRDGETVESGEVTIKGYAWSGGGRAVIRVDVSLDGGLTWQVAKLDGEEQRPRKAWAWRLWQLKAPVPAGQKELNIVCKAVDDGYNVQPDTVAPIWNLMGMLSNAWHRVHVYVSP
B5: protein (Irpex lacteus, UniProt A0A510I1H7); chain QSQVWGQCGGIGWTGATTCVAGSVCTKSNDYYSQCIPGAAAPSSAPPASTPVSVPPSQPSGSSGGLANIPASKLTQFSNFGTNPNNVQMFVYKPKNVAANPPLIVASHYCSGTAQAYFTGSKFAQLAETYGYVVIFPSSPHSGTCWDVSSDETLMHDGGSDSLSIANAARFAISNWGVDPNRVFAVGTSSGAMMTSVLAGAYPDIFKAGIVDSGVAFGCFAVPGQPEDSWNSQCSEGQLVLTGQQWAQKVKNAFPGFTGTYPKMQVWHGTADTTLYPQNFFEEVKQWTTIFNYPSTPLSNVTQTNLGSNYHNATFGPNFQAILATGVGHTVPLFEQQYLQFLGIA
B6: IYD (Homo sapiens, UniProt Q6PHW0); chain MGEPRTRAEARPWVDEDLKDSSDLHQAEEDADEWQESEENVEHIPFSHNHYPEKEMVKRSQEFYELLNKRRSVRFISNEQVPMEVIDNVIRTAGTAPSGAHTEPWTFVVVKDPDVKHKIRKIIEEEEEINYMKRMGHRWVTDLKKLRTNWIKEYLDTAPILILIFKQVHGFAANGKKKVHYYNEISVSIACGILLAALQNAGLVTVTTTPLNCGPRLRVLLGRPAHEKLLMLLPVGYPSKEATVPDLKRKPLDQIMVTV
B7: NADK2 (Homo sapiens, UniProt Q4G0N4); chain LGQGQPRELAGCGSRADGGFRPSRVVVVAKTTRYEFEQQRYRYAELSEEDLKQLLALKGSSYSGLLERHHIHTKNVEHIIDSLRNEGIEVRLVKRREYDEETVRWADAVIAAGGDGTMLLAASKVLDRLKPVIGVNTDPERSEGHLCLPVRYTHSFPEALQKFYRGEFRWLWRQRIRLYLEGTGINPVPVDLHEQQLSLNQHNRALNIERAHDERSEASGPQLLPVRALNEVFIGESLSSRASYYEISVDDGPWEKQKSSGLNLCTGTGSKAWSFNINRVATQAVEDVLNIAKRQGNLSLPLNRELVEKVTNEYNESLLYSPEEPKILFSIREPIANRVFSSSRQRCFSSKVCVRSRCWDACMVVDGGTSFEFNDGAIASMMINKEDELRTVLLEQ
B8: protein (Stereum hirsutum, UniProt P9WEW2); chain MAVATSVATPVPTPAYSAGRAPAKEKKIYLPDTLAEWPWPRAINPHYAEAKEESQAWAASFNAFSPKAQHAFNRCDFNLLASLAYPLATKHGCRSGCDLMNLFFVIDEYSDIAPVEEVRQQKDIVMDALRNPHKPRPEGEWVGGEVARQFWALTITNASAQSQKHFIETFDEYLDSVVQQAEDRSESRIRDIQSYIDVRRNTIGAKPSFALLELDMDLPDEVLAHPTIQSLSLATIDMLCLGNDIVSYNLEQARGDASHNIITIVMNELNLDVNGAMRWVGDFHKQLEKQFFEAFNNLPKWGNAELDAQIAVYCDGLGNWVRANDQWSFESERYFGARGLEIMETKTLAMMPIQRTEALGPQLVDDSIL
B9: DCXR (Homo sapiens, UniProt Q7Z4W1); chain MELFLAGRRVLVTGAGKGIGRGTVQALHATGARVVAVSRTQADLDSLVRECPGIEPVCVDLGDWEATERALGSVGPVDLLVNNAAVALLQPFLEVTKEAFDRSFEVNLRAVIQVSQIVARGLIARGVPGAIVNVSSQCSQRAVTNHSVYCSTKGALDMLTKVMALELGPHKIRVNAVNPTVVMTSMGQATWSDPHKAKTMLNRIPLGKFAEVEHVVNAILFLLSDRSGMTTGSTLPVEGGFWAC
B10: enzyme (Thermus thermophilus, UniProt Q72J81); chain MEVKRIGVVGAGQMGSGIAQVAASAGYEVVLVDVAESFLERGLAAIRRSLGKFLEKGKITQEAHDEALGRIRTSLSLEDLKDADLIVEAIVEDEGEKRRLFERLGALAKPEAILASNTSSIPITALARYSGRPERFIGMHFFNPVPLMQLVEVIRGELTSEATRDVVVEVARRMGKTPLEVQDYPGFISNRLLMPMINEAIEALREGVATKEAIDGIMRLGMNHPMGPLELADFIGLDTCLAIMEVLHRGFGDDKYRPSPLLRRMVQAGLLGRKAGRGFYTYDEKGNKVG
B11: PRODH2 157-515 (Homo sapiens, UniProt Q9UF12); chain YGQFVAGETAEEVKGCVQQLRTLSLRPLLAVPTEEEPDSAAKSGEAWYEGNLGAMLRCVDLSRGLLEPPSLAEASLMQLKVTALTSTRLCKELASWVRRPGASLELSPERLAEAMDSGQNLQVSCLNAEQNQHLRASLSRLHRVAQYARAQHVRLLVDAEYTSLNPALSLLVAALAVRWNSPGEGGPWVWNTYQACLKDTFERLGRDAEAAHRAGLAFGVKLVRGAYLDKERAVAQLHGMEDPTQPDYEATSQSYSRCLELMLTHVARHGPMCHLMVASHNEESVRQATKRMWELGIPLDGTVCFGQLLGMCDHVSLALGQAGYVVYKSIPYGSLEEVIPYLIRRAQENRSVLQGARRE
Chain of UniProt Q7L266 (whole entry, looked up): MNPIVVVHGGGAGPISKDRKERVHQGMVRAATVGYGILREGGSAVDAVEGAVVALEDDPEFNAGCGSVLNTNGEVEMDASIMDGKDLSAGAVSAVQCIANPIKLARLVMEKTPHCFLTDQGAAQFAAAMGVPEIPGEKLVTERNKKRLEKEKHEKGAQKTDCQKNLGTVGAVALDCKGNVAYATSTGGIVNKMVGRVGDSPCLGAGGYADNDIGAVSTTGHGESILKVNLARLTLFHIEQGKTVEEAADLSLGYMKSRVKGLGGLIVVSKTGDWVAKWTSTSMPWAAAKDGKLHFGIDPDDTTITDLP
Chain of UniProt P27306 (whole entry, looked up): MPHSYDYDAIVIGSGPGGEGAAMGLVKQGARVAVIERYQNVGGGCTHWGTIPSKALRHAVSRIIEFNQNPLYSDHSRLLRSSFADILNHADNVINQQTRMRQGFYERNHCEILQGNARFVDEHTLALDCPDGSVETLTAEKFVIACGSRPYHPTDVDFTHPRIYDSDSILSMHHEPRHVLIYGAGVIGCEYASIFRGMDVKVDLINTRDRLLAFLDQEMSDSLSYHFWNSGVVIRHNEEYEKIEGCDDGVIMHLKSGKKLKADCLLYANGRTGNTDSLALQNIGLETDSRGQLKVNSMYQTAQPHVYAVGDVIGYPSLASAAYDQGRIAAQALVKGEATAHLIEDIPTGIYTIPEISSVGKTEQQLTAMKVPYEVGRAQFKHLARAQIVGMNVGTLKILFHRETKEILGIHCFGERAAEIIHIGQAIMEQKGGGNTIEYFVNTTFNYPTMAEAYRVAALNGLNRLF
Chain of UniProt Q9HJT3 (whole entry, looked up): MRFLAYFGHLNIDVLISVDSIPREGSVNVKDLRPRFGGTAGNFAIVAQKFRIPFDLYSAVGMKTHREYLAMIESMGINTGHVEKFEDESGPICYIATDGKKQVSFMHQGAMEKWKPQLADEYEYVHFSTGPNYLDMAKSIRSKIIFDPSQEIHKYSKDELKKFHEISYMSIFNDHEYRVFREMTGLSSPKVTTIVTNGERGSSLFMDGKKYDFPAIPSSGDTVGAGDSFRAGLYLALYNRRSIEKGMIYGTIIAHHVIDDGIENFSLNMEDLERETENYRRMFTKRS
Chain of UniProt J9VYP5 (whole entry, looked up): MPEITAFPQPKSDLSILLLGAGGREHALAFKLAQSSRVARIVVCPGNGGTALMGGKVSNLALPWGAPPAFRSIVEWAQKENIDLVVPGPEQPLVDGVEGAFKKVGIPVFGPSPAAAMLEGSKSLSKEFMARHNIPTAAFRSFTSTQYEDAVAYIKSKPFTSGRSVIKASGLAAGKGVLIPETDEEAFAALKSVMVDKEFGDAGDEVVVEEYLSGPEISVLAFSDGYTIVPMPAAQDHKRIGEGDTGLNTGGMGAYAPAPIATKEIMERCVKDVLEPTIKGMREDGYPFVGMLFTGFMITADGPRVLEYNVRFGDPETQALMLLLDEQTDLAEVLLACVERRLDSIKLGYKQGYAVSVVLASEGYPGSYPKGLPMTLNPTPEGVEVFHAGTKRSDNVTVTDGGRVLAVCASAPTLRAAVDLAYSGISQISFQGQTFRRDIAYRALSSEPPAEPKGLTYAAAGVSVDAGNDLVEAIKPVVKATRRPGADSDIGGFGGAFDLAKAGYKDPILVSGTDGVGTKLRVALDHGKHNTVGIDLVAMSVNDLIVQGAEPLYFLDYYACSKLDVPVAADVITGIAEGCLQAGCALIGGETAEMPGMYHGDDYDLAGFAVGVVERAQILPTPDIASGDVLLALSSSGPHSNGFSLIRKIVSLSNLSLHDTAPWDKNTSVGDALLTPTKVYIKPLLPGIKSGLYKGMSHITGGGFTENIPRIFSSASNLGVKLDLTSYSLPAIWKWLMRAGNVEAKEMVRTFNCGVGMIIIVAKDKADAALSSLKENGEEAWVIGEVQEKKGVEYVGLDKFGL
Chain of UniProt Q9UYB2 (whole entry, looked up): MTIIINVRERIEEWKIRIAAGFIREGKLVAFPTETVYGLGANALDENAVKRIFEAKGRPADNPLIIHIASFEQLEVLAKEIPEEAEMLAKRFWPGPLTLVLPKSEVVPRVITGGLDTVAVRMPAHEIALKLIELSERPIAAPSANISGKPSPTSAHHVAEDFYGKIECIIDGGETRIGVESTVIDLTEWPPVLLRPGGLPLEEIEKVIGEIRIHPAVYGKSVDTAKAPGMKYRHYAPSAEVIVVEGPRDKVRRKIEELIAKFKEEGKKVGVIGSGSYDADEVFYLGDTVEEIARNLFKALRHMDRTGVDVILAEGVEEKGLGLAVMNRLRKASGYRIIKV

Molecule | substrate | pH | temperature | notes | added | kcat
Sua5 (Pyrococcus abyssi, UniProt Q9UYB2) | Nc1ncnc2c1ncn2[C@@H]1O[C@H](COP(=O)(O)OP(=O)(O)OP(=O)(O)O)[C@@H](O)[C@H]1O | pH 8 | 50 °C |  | L-threonine, ATP 5–500 µM, MnCl2 1 mM, MgCl2 10 mM | 0.029 ± 0.001 s⁻¹
TaNK (Thermoplasma acidophilum, UniProt Q9HJT3) | Nc1nc2c(ncn2[C@@H]2O[C@H](COP(=O)(O)OP(=O)(O)OP(=O)(O)O)[C@@H](O)[C@H]2O)c(=O)[nH]1 | pH 8 | 22 °C | apparent | inosine, Mg2+ | 0.266 ± 0.027 s⁻¹
B1 (TBM M536C) | NCCc1ccc(O)cc1 | pH 6 | 35 °C | KCl 0.1 M, apparent Km, apparent | ascorbate 50 mM, CuSO4 15 µM | 0.45 s⁻¹
B2 (Nudt8) | CC(C)(COP(=O)(O)OP(=O)(O)OC[C@H]1O[C@@H](n2cnc3c(N)ncnc32)[C@H](O)[C@@H]1OP(=O)(O)O)[C@@H](O)C(=O)NCCC(=O)NCCSC(=O)CCC(=O)O | pH 8.5 |  |  | 2 mM Mn2+ | 3.12 ± 0.233 s⁻¹
B3 (cyc1 F96W) | CC(C)=CCC/C(C)=C/CC/C(C)=C/CO[P@@](=O)(O)OP(=O)(O)O | pH 6.5 | 30 °C |  | MgCl2 10 mM | 0.00035 ± 2e-05 s⁻¹
B4 (SUOX R529M/V531M/Y400N) | O=[N+]([O-])O | pH 7 | 25 °C |  | dithionite-reduced methyl viologen | 1.07 s⁻¹
ADE5,7 (Cryptococcus neoformans, UniProt J9VYP5) | Nc1ncnc2c1ncn2[C@@H]1O[C@H](COP(=O)(O)OP(=O)(O)OP(=O)(O)O)[C@@H](O)[C@H]1O | pH 8 | 37 °C | apparent |  | 27.3 ± 0.4 s⁻¹
B5 (protein) | CC(=O)Oc1ccc2c(C)cc(=O)oc2c1 | pH 6 | 30 °C |  |  | 33.8 ± 5.7 s⁻¹
B6 (IYD) | N#Cc1cc(C[C@H](N)C(=O)O)cc(I)c1O | pH 7.4 | 25 °C |  | sodium dithionite 0.5% | 0.02 ± 0.003 s⁻¹
B7 (NADK2) | NC(=O)c1ccc[n+]([C@@H]2O[C@H](COP(=O)(O)OP(=O)(O)OC[C@H]3O[C@@H](n4cnc5c(N)ncnc54)[C@H](O)[C@@H]3O)[C@@H](O)[C@H]2O)c1 |  | 37 °C |  |  | 1.4 s⁻¹
sthA (Escherichia coli, UniProt P27306) | NC(=O)c1ccc[n+]([C@@H]2O[C@H](COP(=O)(O)OP(=O)(O)OC[C@H]3O[C@@H](n4cnc5c(N)ncnc54)[C@H](O)[C@@H]3O)[C@@H](O)[C@H]2O)c1 | pH 7.5 | 37 °C | NaCl 150 mM | thio-NADH 200 µM | 11 ± 2 s⁻¹
octaprenyl-diphosphate synthase (Bacteroides fragilis, UniProt Q5LIZ3) | C=C(C)CCO[P@@](=O)(O)OP(=O)(O)O | pH 7.6 | 37 °C |  | FPP; Triton X-100.1%; MgCl2 10 mM | 0.03 s⁻¹
ASRGL1 (Homo sapiens, UniProt Q7L266) | NCCCC[C@H](NC(=O)C[C@H](N)C(=O)O)C(=O)O | pH 7.4 | 37 °C | NaCl 100 mM |  | 5.3 ± 0.4 s⁻¹
B8 (protein) | CC(C)=CCC/C(C)=C/CC/C(C)=C/CO[P@@](=O)(O)OP(=O)(O)O | pH 8 |  | NaCl 200 mM | FPP 1–100 µM | 0.0063 ± 0.0007 s⁻¹
B9 (DCXR) | CC(=O)C(C)=O | pH 7 |  |  | NADPH 200 µM | 5.8 s⁻¹
B10 (enzyme) | NC(=O)c1ccc[n+]([C@@H]2O[C@H](COP(=O)(O)OP(=O)(O)OC[C@H]3O[C@@H](n4cnc5c(N)ncnc54)[C@H](O)[C@@H]3O)[C@@H](O)[C@H]2O)c1 | pH 7 | 65 °C | cofactor varied |  | 12.9 s⁻¹
B11 (PRODH2 157-515) | O=C(O)[C@@H]1C[C@@H](O)CN1 | pH 7.5 | 25 °C |  | O2 | 0.002 ± 0.001 s⁻¹

Repeated from above:
Molecule | substrate | pH | temperature | notes | added | kcat
B8 (protein) | CC(C)=CCC/C(C)=C/CC/C(C)=C/CO[P@@](=O)(O)OP(=O)(O)O | pH 8 |  | NaCl 200 mM | FPP 1–100 µM | 0.0063 ± 0.0007 s⁻¹
ASRGL1 (Homo sapiens, UniProt Q7L266) | NCCCC[C@H](NC(=O)C[C@H](N)C(=O)O)C(=O)O | pH 7.4 | 37 °C | NaCl 100 mM |  | 5.3 ± 0.4 s⁻¹
